Measured values pooled from the literature.
Numbered parts are unrelated; each lists some results of a single study. Positions count from the first letter of the parent shown.

Set 1
Target: Histone acetyltransferase KAT6A, both winged helices, GST fusion (KAT6A, Homo sapiens, UniProt Q92794, residues 1-181)
Technique: protein binding microarray
Form: double-stranded DNA, one strand shown
Medium: in vitro
Tested at: not given
Notes: 8-mer, flanks averaged, mean of 2 arrays, mostly near background
Baseline: not given
Reading: higher = stronger binding
Construct (chain): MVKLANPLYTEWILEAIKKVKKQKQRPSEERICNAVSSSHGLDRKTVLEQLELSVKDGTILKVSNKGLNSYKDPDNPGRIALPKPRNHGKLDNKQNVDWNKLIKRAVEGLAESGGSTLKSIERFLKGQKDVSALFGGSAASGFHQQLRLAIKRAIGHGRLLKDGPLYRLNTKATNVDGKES
| Sequence | E-score |
| --- | --- |
| AACTACAC | -0.126 |
| GCTGCTAC | -0.0986 |
| AATTGGTC | -0.0706 |
| TTATCGAA | -0.0211 |
| AACTAAGA | -0.0775 |
| CGTGGCCA | -0.0314 |
| CGCTCACG | 0.293 |
| CAGAATCC | -0.0871 |
| ACGCATCG | 0.184 |
| ACTGTAGC | 0.00867 |
| CCAACTAC | -0.139 |
| AGTCACCC | -0.138 |
| TCGTTGCA | -0.143 |
| AATCATCG | 0.0846 |
| ATAACACG | 0.17 |
| ACGGGTAG | 0.201 |
| CCCCGGCA | 0.147 |
| GGTACAAC | -0.0283 |
| GGCTCACC | 0.0225 |
| GCGACCGC | 0.316 |
| ATCCGGAG | 0.189 |
| ATGTAGCA | -0.0756 |

Set 2
Target: CEP164, C-terminal peptide (human)
Technique: DHFR complementation, deep sequencing
Medium: yeast
Notes: single substitutions, model-inferred values
Baseline: wild type
Reading: higher = weaker binding
Starting sequence: PDZK1, PDZ domain 2 (human); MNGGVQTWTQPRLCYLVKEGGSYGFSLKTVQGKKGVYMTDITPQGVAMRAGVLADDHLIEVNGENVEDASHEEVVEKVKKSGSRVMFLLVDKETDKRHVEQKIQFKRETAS; partner HNRVKVYRF
| Variant | binding free energy change [kcal/mol] |
| --- | --- |
| E93N | -0.231 |
| G45D | 2.03 |
| T9Q | 0.0268 |
| S81V | 0.95 |
| T94R | 0.0193 |
| M48T | 0.558 |
| T109L | -0.138 |
| K28W | -0.368 |
| G51V | 1.16 |
| Q10H | 0.0127 |
| E19P | 0.589 |
| V90Y | -0.00352 |
| T39Q | 0.954 |
| K34G | 0.326 |
| F105A | -0.186 |
| V66I | -0.291 |
| V75D | 2.64 |

Set 3
Target: Phosphate system positive regulatory protein PHO4, full length, GST-tagged (PHO4, Saccharomyces cerevisiae, UniProt P07270, residues 1-312)
Technique: competition protein-binding microarray
Form: double-stranded DNA, one strand shown
Medium: in vitro
Tested at: 2 µM
Notes: whole 60-bp probe, lowest competitor level
Together with: Cbf1 competitor, 0.05 µM
Reading: higher = stronger binding
Target sequence (chain): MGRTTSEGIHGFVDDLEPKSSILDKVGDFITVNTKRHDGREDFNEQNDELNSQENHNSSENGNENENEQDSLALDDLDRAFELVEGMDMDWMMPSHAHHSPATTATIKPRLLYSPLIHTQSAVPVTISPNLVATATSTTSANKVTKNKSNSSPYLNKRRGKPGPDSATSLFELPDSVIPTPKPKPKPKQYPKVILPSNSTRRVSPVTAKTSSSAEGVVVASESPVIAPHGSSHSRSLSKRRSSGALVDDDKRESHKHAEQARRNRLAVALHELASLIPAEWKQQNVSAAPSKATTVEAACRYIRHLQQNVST
| Sequence | fluorescence intensity [a.u.] |
| --- | --- |
| AAATTACTAAGTTGTCTCGTGGGTGACGCCGTATGAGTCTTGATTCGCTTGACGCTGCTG | 9420 |
| GAGTTTGATTCCAAACTCGTGGTGATACCAACGAAGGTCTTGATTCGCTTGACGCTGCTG | 8810 |
| ACTTTAAGACGAGACCTCGTGGAACCAAGATCGGTGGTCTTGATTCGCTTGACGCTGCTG | 12900 |
| CGCTCGTCTTGGTGGCATGCGCTTTTTTTTTCTTGGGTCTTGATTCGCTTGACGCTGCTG | 7900 |
| CGCCATCTTGGGCCCCGCGTGTTCCCGCCTTAGCGGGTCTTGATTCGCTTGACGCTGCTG | 9700 |
| GCCATCTGTAATCAACATGTGAACTGAATGAAGCCGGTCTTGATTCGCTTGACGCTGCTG | 6710 |
| AAACCATGGGACTGTCACACTATCCTTTCCAAGCCCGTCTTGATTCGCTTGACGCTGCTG | 4500 |
| AATCCAAGTTTCGGCCACGATGGCAGCAGCCTATTGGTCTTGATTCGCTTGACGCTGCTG | 9380 |
| TCTACAGGAGTTCTGCATGTGCGTAATTCAAAGCCTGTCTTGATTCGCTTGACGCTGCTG | 10800 |
| CATACCCAACCTTGCGCCGTGGGTGAAGATATTTGTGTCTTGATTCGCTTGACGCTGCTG | 5660 |
| AAGACTTAACGATACCACGTGTACAAAGCACTGAATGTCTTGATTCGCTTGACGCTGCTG | 18000 |
| CTTTCCCGATCTTGGATCGTGGGTGTAGCACATTTGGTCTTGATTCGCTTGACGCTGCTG | 8900 |
| CCGGTGTTGCCCCATTCCGTGGGTATATCAGAGAGCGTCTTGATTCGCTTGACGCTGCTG | 5510 |
| TTCCTGGTAGTCTCGCATACGTTTGTCAGTGGCATTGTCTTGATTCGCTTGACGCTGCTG | 4470 |
| CTATTACGGGCTTGGCTTGTGAAACTTTTCCTATATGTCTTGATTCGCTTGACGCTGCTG | 3270 |
| AAAAAAAGAAGAGATAACGTGGGTACAGCTAAAAAAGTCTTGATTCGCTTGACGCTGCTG | 12100 |
| CTTCTGTAAATTTTTCACGTGTGGTGAAGCGCCCCGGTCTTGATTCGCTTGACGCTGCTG | 12200 |
| TGCCAAGCACTTTTCATCATGACAATTAGGGTAGATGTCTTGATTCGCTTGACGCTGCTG | 3950 |

Set 4
Target: CCND2, cyclin fold, Cln2 fusion (human)
Technique: yeast growth competition, sequencing
Medium: yeast
Notes: strong parent motif
Baseline: not given
Reading: higher = stronger binding
Starting sequence: E2F1 docking peptide (human); PPVKRRLDFETDH
| Variant | normalised enrichment score |
| --- | --- |
| T11M | 1.82 |
| P2Q | 1.06 |
| K4I | 2.02 |
| R6C | 1.03 |
| R5W | 0.312 |
| K4A | 3.24 |
| L7N | 0.0985 |
| R6I | 0.324 |
| E10C | 1.79 |
| T11C | 2.1 |
| R5S | -0.185 |
| D8M | 1.32 |
| F9V | 0.204 |
| P2R | 1.3 |
| R6L | 0.668 |
| E10K | 1.25 |
| L7K | 0.0966 |
| R6M | 0.678 |
| D8G | 0.317 |
| P2V | 1.03 |
| T11A | 1.68 |
| R6V | 1.21 |

Set 5
Target: Interferon regulatory factor 3, full length, phosphomimetic (IRF3, Homo sapiens, UniProt Q14653, residues 1-427, S386D/S396D/S398D/S402D/T404D/S405D)
Technique: protein-binding microarray
Form: double-stranded DNA, one strand shown
Medium: in vitro
Tested at: 2540 nM top
Notes: 60-bp whole probe
Together with: salmon DNA 0.4 mg/ml
Baseline: random background probes
Reading: higher = stronger binding
Constant ends, left off below: GCCTAGCAC … GTCTTGATTCGCTTGACGCTGCTG
Residues (chain): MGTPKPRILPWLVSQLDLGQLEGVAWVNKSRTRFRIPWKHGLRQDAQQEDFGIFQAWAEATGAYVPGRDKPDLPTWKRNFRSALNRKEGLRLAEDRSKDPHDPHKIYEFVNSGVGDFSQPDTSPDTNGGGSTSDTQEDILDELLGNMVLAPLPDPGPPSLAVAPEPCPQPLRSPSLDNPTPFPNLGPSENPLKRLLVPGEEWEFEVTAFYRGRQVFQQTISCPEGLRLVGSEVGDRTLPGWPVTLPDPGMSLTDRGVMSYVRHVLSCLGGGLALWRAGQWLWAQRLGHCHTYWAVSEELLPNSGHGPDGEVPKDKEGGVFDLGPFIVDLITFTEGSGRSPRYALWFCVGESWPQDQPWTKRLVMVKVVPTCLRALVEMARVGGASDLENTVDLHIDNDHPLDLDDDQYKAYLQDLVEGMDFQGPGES
| Sequence | fitted relative affinity |
| --- | --- |
| TTCGGTATCGGGTTTCGGTTAGTGCTA | 4.26 z-score |
| TTAGGTAGCCTTATCCTTTAGTGCTAG | 1.3 z-score |
| GACGGTTTCGGAATGGGGACGTGCTAG | 7.38 z-score |
| TCATCTTTCACTGCTCCCACTGTGCTA | 1.27 z-score |
| CACGGTCTCCTTTTCCTGACGTGCTAG | 4.2 z-score |
| ATGGGTATGGCCTATTTATATGTGCTA | -0.543 z-score |
| GACGGTTTCGACTTTCGGTACGTGCTA | 4.32 z-score |
| TTAGATATCGCGACTGGATTAGTGCTA | -0.327 z-score |
| TTAGATTTCGGGTTCCGATTAGTGCTA | 3.57 z-score |
| GTCGGTTCCCTTTTCCTGACGTGCTAG | 7.43 z-score |
| TTAGGTATCGATCTCGGTTAGTGCTAG | 3.14 z-score |
| TCATCTTCCCTTTTAAGACTGTGCTAG | 4.35 z-score |
| GACGATTCGAGTTTCGAGACGTGCTAG | 1.51 z-score |
| TAAGGTATCCTACTGCTTTAGTGCTAG | 2.25 z-score |
| GACGGTATCGGACTGGGGTCGTGCTAG | 1.61 z-score |
| CCCAATAATCTTTTCACTTTGTGCTAG | 1.2 z-score |
| GACGATATCAGACTGGTGACGTGCTAG | 0.23 z-score |
| GACGGTCTCCTACTGCTGATGTGCTAG | 0.951 z-score |
| TTAGGAATCCTTATCCTTTAGTGCTAG | 2.68 z-score |
| TTAGGTTTCCTTATCTTTTAGTGCTAG | 7.44 z-score |
| TCACTACTGCATTTTTTACTGTGCTAG | 0.215 z-score |

Set 6
Target: ABI1, truncated, D143A, DHFR fusion (Arabidopsis thaliana)
Technique: DHFR PCA, deep sequencing
Medium: yeast
Notes: methotrexate growth selection, single substitutions
Together with: (+)-ABA 2500 µM
Baseline: wild-type fitted maximum
Reading: higher = stronger binding
Starting sequence: PYL1, truncated, DHFR fusion (Arabidopsis thaliana); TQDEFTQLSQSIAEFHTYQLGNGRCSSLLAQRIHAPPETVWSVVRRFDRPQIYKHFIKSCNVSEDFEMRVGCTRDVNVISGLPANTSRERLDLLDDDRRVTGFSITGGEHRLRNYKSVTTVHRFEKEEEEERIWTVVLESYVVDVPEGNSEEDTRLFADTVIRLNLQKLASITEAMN; partner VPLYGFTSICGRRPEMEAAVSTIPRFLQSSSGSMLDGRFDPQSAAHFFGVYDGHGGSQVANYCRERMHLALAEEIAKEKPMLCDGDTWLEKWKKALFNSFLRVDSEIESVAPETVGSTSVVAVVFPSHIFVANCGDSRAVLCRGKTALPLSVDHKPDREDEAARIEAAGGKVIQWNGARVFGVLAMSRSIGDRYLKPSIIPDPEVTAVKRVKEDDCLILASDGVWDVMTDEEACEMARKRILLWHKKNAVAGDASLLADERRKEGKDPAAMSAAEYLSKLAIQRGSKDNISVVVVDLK
| Variant | relative binding score |
| --- | --- |
| K126A | 103% |
| S11T | 87.8% |
| I172S | 86.4% |
| R90S | 89.7% |
| D153M | 54.6% |
| R69I | 100% |
| R90P | -6.48% |
| S42F | 94.6% |
| A84C | 85.3% |
| V76C | 92.2% |
| V62W | 88.5% |
| V76W | -6.28% |
| N177L | 109% |
| N22P | 102% |
| D97H | 96% |
| R74E | 0.332% |
| S80N | 80.2% |
| V76G | 8.51% |
| E89Q | 65% |
| S42V | 93.5% |

Single results of other studies
| Molecule | target | assay | test system | setting | scale | endpoint | result |
| --- | --- | --- | --- | --- | --- | --- | --- |
| PhoQ, residues 284 288 289 292 302 303 SCCLKL | PhoP, residues 12 14 15 18 19 TTLRV (Escherichia coli, UniProt P23836) | Sort-seq, measured: YFP reporter | E. coli | PhoQ-PhoP variant library, together with: 10 µM Mg2+ | baseline: high Mg2+ state, higher = stronger signaling | fold induction | 6.73 |
